Measured values from different studies.
Parts stem from different laboratories: compare values within a part only. Changes are numbered by the printed parent chain.

Set 1
Target: RNA binding protein fox-1 homolog 2, RRM domain, GST-SBP tag (RBFOX2, Homo sapiens, UniProt O43251-10, residues 100-194)
Method: RNA Bind-n-Seq
Molecule type: RNA
Sample: in vitro
Concentration: 365 nM
Notes: natural RNA segment, single round, ends assumed
Baseline: no-protein control
Direction: higher = stronger binding
Quantity: RBNS enrichment (R)
Target sequence (chain): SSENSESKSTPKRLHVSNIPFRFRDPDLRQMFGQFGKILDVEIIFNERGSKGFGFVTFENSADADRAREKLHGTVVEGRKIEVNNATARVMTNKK
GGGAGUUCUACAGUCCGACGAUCGUGGCAGACUGACUUUGGACAGUGAGACCCUGACCUUGCUGCAUUGCUUUGCCUUCACCACCGCUAGUCUGUUUGGAAGGCUUGAGGUGGGGUGUCUUGGGAAAUUAGGGUGGAAUUCUCGGGUGCCAA: 1.64
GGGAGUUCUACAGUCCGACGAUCAUUGACCUUUUUACAAAGUUUGAUCCCCAAGCAUCCUCAACUAAAUCAUUGAAUACUUCAAUCAGGAUAUUAUCUGCUUUACUUUACAAAUAAAACCAAAUCUUUUGUCAUGGAAUUCUCGGGUGCCAA: 0.681
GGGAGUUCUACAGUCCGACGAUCUGUAAUGGUUCAGCUAAUCCCAUGGCGAGAUGGGGGCUCACUCCGGAGGAGGAGCCAGGCAGCAGGGCCUUCCUGACCAACAGCCAGCUCUGUCCUUCCCCCCAGGAAACUGGAAUUCUCGGGUGCCAA: 0.372
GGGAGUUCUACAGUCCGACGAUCUUGGGUUGUGUUUUGUGUCUGAGUCCCCUCCCUCAUCCCUUAGGGUCCAGAAGAGCAAUGGAGGAAGUGACAGCUAAUGUUGCAGUUCUUAUUGUAUGGCAUAGGACUGGUGGAAUUCUCGGGUGCCAA: 0.854
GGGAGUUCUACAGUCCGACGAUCCAACACUACCCAGGACUCUUGCUACCUGGUUCCAACUCCAGACAACCACUAUGCCAGGCCCGGAGCCUCUGAGGCAUCGGCCAGUCCAGGCCCUCAUCUGAGGUAAGAAUUGGAAUUCUCGGGUGCCAA: 0.271
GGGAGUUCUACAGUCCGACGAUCUCCUGCUUCUUGCCGUGAUACUGUGCCCCAGAACAGCCUGGGGUCCCUGCUAGUUCCUGUCAAGGCAUGCCCAGGUUCUCCACAGCUUUCCAGUGCAAAAGGCCUAGACAUGGAAUUCUCGGGUGCCAA: 0.726
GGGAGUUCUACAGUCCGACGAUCUUAGAGGAGCGCUGUCCCUAUCCCUUGCUCCUUCUGGCCGGUCCGCAUUUCUGUUCACUAACCCCACUCCAGGACACUGCCCCUGAAGCCUUUGCAUCUCUGCUCUUCACUGGAAUUCUCGGGUGCCAA: 0.882
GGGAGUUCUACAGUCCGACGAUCCAGCCAUGCCUGGCUAGGACAGCCAAAUUGUUGUUGUUUCAAGUCUGGUUUCAUUUGCUUCCCUGCCGGGUUUAUUGUGUGUACCCCAUUUGUACUCCCAAUAACCUGAAUGGAAUUCUCGGGUGCCAA: 0.325
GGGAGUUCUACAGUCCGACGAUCAGAUGUUUAAAAUGCUUUUGUAUUUACUGCCAUGUAAUUGAAAUAUAUAGAUUAUUGUAACCUUUCAACCUGAAAAUCAAGCAGUAUGAGAGUUUAGUUAUUUGUAUGUGUGGAAUUCUCGGGUGCCAA: 0.482
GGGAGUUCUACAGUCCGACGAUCAUGGCUGUGGCCUGAAGUUGCACUUGCAAAGGUCCUGCUUCUACAGGACGCUGAGGUACUUACUACCCUGGUCUCGGGAACUGCCUGCCUAGGGCAACAGAUGUCCUGACUGGAAUUCUCGGGUGCCAA: 0.233
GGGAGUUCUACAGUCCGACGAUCAGUGGGGUUGUGGUUGGUUGGUAUAGAAUGGUGGGAAUUCAAAUUUUUCUAAACUCAUGGUAAGUAUAUUGUAAAAUACAUAUGUACUAAGAAUUUUCAAAAUUGGUUUGUGGAAUUCUCGGGUGCCAA: 33.2
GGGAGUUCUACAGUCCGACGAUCGGGAGUGGAAGAAGGGAAGCCUUUUGCAAAUAGUAGAGUAUCAGUUGCAGGUGCCAAUGACUAACUUUUUGAAUUCUAUGUUGGCAUUAACAAUAAAGCAUUUUGCAAACUGGAAUUCUCGGGUGCCAA: 1.03

Set 2
Target: CCND2, cyclin fold, Cln2 fusion (human)
Method: yeast growth competition, sequencing
Sample: yeast
Notes: weak parent motif
Baseline: not given
Direction: higher = stronger binding
Quantity: normalised enrichment score
Starting sequence: SLBP docking peptide (human); ARYKRKLLINDFG
I9S: 0.783
A1Y: 0.142
R2E: 0.357
R2V: 0.0794
A1T: 0.807
I9R: -0.00743
D11L: 0.0206
F12I: 0.0546
I9V: -0.134
Y3W: -0.0665
D11V: 0.327
L8N: 0.302
K6D: -0.0822
R5A: 0.181
L7Y: 0.283
R2N: 0.501
A1L: 0.344
Y3C: 0.304
N10K: -0.0422
A1W: 0.394
L8K: -0.211
L8Y: 0.117
R5N: 0.315
A1Q: -0.44
F12G: 0.288

Set 3
Target: Histone acetyltransferase KAT6A, winged helix 2, GST fusion (KAT6A, Homo sapiens, UniProt Q92794, residues 85-181)
Method: protein binding microarray
Molecule type: double-stranded DNA, one strand shown
Sample: in vitro
Concentration: not given
Notes: 8-mer, flanks averaged, mean of 2 arrays, mostly near background
Baseline: not given
Direction: higher = stronger binding
Quantity: E-score
Construct (chain): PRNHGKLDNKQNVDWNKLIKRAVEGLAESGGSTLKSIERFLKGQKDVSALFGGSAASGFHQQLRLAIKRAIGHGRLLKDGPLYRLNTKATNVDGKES
GGTCACCA: 0.0813
CCGCGGTA: 0.132
CCTGTATC: -0.00858
GGCTTATA: -0.0533
CATTGGAC: -0.0489
AAAAACAT: -0.143
CCTGGGCC: 0.0152
CTCTGGGA: -0.00124
GCCCCGAA: 0.158
GATGCCGC: 0.0435
AGCGCAAT: -0.0279
GCTGTGAA: -0.0397
CAATCAGC: 0.00842
AATCTCAC: -0.0274
ATGGCCTC: -0.0505
CGCACTAG: 0.011
AAATCTAA: -0.051
ACCCCCAA: -0.0743
TGAACCAA: 0.222
ATATAAAC: 0.0536
ACCCACTG: 0.132
ACCGATCT: -0.115
GAGGGCCA: 0.179
GAAGTTCC: -0.186
ATTTAGAG: 0.0756

Set 4
Target: RING finger protein unkempt homolog, zinc fingers 1-6, GST-SBP tag (UNK, Homo sapiens, UniProt Q9C0B0, residues 30-357)
Method: RNA Bind-n-Seq
Molecule type: RNA
Sample: in vitro
Concentration: not given
Notes: RNA with constant flanks, human and mouse sites, ends assumed
Baseline: input RNA pool
Direction: higher = stronger binding
Quantity: bound/input enrichment
Target sequence (chain): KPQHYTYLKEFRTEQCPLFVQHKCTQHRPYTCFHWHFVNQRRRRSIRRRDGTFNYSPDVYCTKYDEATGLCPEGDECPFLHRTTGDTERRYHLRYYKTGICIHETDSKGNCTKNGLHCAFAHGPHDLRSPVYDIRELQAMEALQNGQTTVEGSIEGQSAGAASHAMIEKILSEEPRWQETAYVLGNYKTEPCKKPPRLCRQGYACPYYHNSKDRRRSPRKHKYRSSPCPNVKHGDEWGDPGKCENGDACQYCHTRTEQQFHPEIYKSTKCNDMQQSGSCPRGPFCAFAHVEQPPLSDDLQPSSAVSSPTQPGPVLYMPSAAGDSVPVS
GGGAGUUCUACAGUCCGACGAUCACUUCUCCAGAUGGAAGUUCAGAAAAACAAUCCCAAGGAGAAAUUGACUUUUCUUUUGUGUAUCUGGCCCAUCCUCGAGCAGUAAAUGGAUUUUCCUGGCGUAAAACAAGCAAAUAUAUGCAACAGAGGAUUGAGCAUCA: 0.193 ratio
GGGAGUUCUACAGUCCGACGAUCUUCCCUGAAUUUCUGACAAUGAUGGCAAGAAAAAUGAAAGACACAGACAGUGAAGAAGAAAUUAGAGAAGCAUUCCGUGUGUUUGAUAAGGAUGGCAAUGGCUAUAUUAGUGCUGCAGAACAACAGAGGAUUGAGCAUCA: 0.586 ratio
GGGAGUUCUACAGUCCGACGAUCUCCUCGAUGUCUAAGGGUUGCUUUGUUUUUAAGCCAAACUCCAAAAAGAGAAAGAUCUCUCUGCCAAUAGAGGACUAUUUUAACAAAGGGAAAAAUGAGCCUGAGGACAGUAAGCUUCGACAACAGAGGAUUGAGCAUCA: 0.138 ratio
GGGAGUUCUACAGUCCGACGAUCGGGUGGUGGGUGUGUGUGUGUGUGUGUGUGUGUGUGUGUGUGUGUGUGUUUGGCUGUGGGUUAGUUGUGCCGUUCUGCUGGAACACCGUGGGAAGGCAGUAGACGCGGGCAGUCAGCUAGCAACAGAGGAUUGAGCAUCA: 0.67 ratio
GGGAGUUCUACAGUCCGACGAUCUUCGCCUGCGCCAAGCUCGCCCGCACCCCCGCUCUGAUCCGAGCUGGAUCCAGAGUUGCAUAUAGACCAAUUUCUGCAUCAGUGUUAUCUCGGCCAGAGACUAGGACUGGAGAGGGCUCUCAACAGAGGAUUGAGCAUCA: 0.253 ratio
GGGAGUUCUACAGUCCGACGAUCGAGAGCUGCCUGGUGUCAGGUAGAGAGGACACUGUACCUGGGUGAAUGAUCAGACCCUGGUAGCUAAGAAGGAACUUGUCCCUUUGAGUCAGUGUGCAGACCCCCUUUCAGGCCAUGCCUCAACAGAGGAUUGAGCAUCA: 0.0864 ratio
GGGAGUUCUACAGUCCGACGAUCGGAAAAAGUCUACAGGGUGAUCCAGCAGCAGCUCUGCUUGAGGUGUUGGAUCCUGAACAAAACCAUAACUUCACAGAUCAUUAUCUAAAUGUGGCCUUUGACCUUUCUCAAGUUCUUUUUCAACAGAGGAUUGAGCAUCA: 0.1 ratio
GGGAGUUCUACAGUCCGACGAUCUUAAAAAAGAAUCCUUUGGGCCAGUGAAUAAAACAGGGCAAAUUUUAGUUAGAAAUUUAGAUAGAAAAUAUACACUUGCAACUUUCCUAGUGUCUCUGAGUCUGCAGCAGUCACUAUAGCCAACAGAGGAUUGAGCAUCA: 81.3 ratio
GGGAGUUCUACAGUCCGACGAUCAGUGCUGGGCAUGUGGAAGUAGCCAGAUUGCUGCUAGAAAAUGGAGCUGGCAUCAAUACGCAUUCCAAUGAAUUUAAAGAGAGUGCCCUUACAUUAGCUUGUUAUAAAGGACAUCUAGAGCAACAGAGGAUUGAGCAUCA: 0.629 ratio
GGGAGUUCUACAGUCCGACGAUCGAAUUCUCACUCUCUGAUCUGAGCCAAGAACAUUUAACAAGCAACGAAGAAAUCUUGGGUUCCGCCGAAGAGAAGGACUGCGAGGAGGCUCGGGGGAUGGAAACGCGGGCGAGUCCGCGGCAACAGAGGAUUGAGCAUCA: 0.159 ratio
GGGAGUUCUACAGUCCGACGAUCUGCAUUAAUCCACCCUUGUUUGAAAUCCAUCAAGUCUUGUUGAGUCCAACCCAACAUCAUGUAGCACUUAUCGGAAGUAAAGGACUUAUGGCAUUAGAAUUACCUCAGAGGUGGGGGAAGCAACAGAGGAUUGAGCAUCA: 0.963 ratio
